# Assay results of several laboratories.
# Lines come from different studies, so protocols differ.
Compound,test,system,setting,concentration
CC(C)n1ncc2c(C(=O)NCCN(C)C)cc(C3CC3)nc21,,"female BALB/c mouse, plasma","intraperitoneal, 50 mg/kg, 3 h",89.6 ng/mL
C=CC(=O)N1CC2C(=O)N(CCN(C)C)c3c(c4cc(Cl)c(-c5c(O)cccc5F)nc4n(-c4c(C)ccnc4C(C)C)c3=O)N2CC1C (stereo not drawn),,"mouse, plasma","oral, 30 mg/kg, 4 h",153 ng/mL
CC(C)(O)c1ccc(N2Cc3c(ccnc3-c3ccc(F)cc3OCC(F)(F)F)C2=O)cc1,,"male C57BL/6 mouse, plasma","oral, 10 mg/kg, 6 h",2390 ng/mL
O=C1CCC(N2Cc3cc(C(=O)O)c(F)cc3C2=O)C(=O)N1 (stereo not drawn),,"male CD-1 mouse, plasma","intravenous, 1 mg/kg, 4 h",28.4 ng/mL
Cc1ncsc1-c1ccc(CNC(=O)[C@@H]2C[C@@H](O)CN2C(=O)[C@@H](NC(=O)COCC(C)(COCCOCCOCCNC(=O)C[C@@H]2N=C(c3ccc(Cl)cc3)c3c(sc(C)c3C)-n3c(C)nnc32)COCCOCCOCCNC(=O)C[C@@H]2N=C(c3ccc(Cl)cc3)c3c(sc(C)c3C)-n3c(C)nnc32)C(C)(C)C)cc1,,"male C57BL/6 mouse, plasma","intravenous, 5 mg/kg, 30 min, single dose",8710 ng/mL
[2H]C([2H])(N)C([2H])([2H])NC(=O)c1cc(C2CC2)nc2c1cnn2C(C)C,,"female BALB/c mouse, plasma","intraperitoneal, 50 mg/kg, 1 h",2310 ng/mL
COc1cccc(C2CC(c3ccccc3Cl)Nc3nc(N)nn32)c1 (stereo not drawn),,"male CD-1 mouse, brain","intraperitoneal, 20 mg/kg, 3 h, single dose",4 µM
CC[C@H](C)[C@@H]1NC(=O)[C@H](Cc2ccc(O)cc2)NC(=O)CCCSC[C@@H](C(=O)N(CC(=O)N[C@@H](CC(C)C)C(=O)NCC(N)=O)Cc2ccc(F)cc2)NC(=O)[C@H](CC(N)=O)NC(=O)[C@H](CCC(N)=O)NC1=O,LC-MS/MS,"human, urine","intravenous, 20 µg, 2 h",0.151 ng/mL
CC(C)n1ncc2c(C(=O)NC[C@@H](C)N)cc(C3CC3)nc21,,"female BALB/c mouse, plasma","intraperitoneal, 30 mg/kg, 4 h",828 ng/mL

# For quick reference, copied from above:
Compound,test,system,setting,concentration
CC[C@H](C)[C@@H]1NC(=O)[C@H](Cc2ccc(O)cc2)NC(=O)CCCSC[C@@H](C(=O)N(CC(=O)N[C@@H](CC(C)C)C(=O)NCC(N)=O)Cc2ccc(F)cc2)NC(=O)[C@H](CC(N)=O)NC(=O)[C@H](CCC(N)=O)NC1=O,LC-MS/MS,"human, urine","intravenous, 20 µg, 2 h",0.151 ng/mL
